Experimental data from different studies.
Numbered parts are unrelated; each lists some results of a single study. Substitutions count along the parent as printed.
Chain of UniProt O60285 (whole entry, looked up): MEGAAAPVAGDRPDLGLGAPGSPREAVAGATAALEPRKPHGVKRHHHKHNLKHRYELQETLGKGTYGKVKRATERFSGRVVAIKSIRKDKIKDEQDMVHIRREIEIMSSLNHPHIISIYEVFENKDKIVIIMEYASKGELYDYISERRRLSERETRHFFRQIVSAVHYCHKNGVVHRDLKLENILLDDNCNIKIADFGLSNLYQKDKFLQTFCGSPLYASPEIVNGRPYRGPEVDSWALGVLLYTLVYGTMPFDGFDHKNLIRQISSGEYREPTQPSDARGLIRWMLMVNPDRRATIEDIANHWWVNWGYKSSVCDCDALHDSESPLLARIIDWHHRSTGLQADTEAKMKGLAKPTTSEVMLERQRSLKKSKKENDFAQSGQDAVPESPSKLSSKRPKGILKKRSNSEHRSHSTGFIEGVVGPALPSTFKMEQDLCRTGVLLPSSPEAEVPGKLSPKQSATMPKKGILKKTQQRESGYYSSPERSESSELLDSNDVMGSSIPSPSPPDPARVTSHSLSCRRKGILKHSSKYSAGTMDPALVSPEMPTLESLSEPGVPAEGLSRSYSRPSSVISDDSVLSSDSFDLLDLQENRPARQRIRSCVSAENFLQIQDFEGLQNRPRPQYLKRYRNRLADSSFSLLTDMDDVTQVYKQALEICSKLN

Block 1
Target: CEP164, C-terminal peptide (human)
Technique: DHFR complementation, deep sequencing
Sample: yeast
Setting: single substitutions, model-inferred values
Relative to: wild type
Direction: higher = weaker binding
Starting sequence: PDZK1, PDZ domain 2 (human); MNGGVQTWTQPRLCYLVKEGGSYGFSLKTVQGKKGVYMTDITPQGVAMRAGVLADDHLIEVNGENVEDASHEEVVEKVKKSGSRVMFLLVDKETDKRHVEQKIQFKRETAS; partner HNRVKVYRF
Variant	binding free energy change [kcal/mol]
V66C	0.228
G4E	0.0227
F25I	0.871
D68M	0.0462
G24V	1.02
Y23G	1.48
N65I	0.326
D91E	0.156

Block 2
Target: OGT, full length, His-tagged (human)
Technique: phage display, sequencing
Sample: in vitro
Tested at: 1 µg OGT
Setting: single substitutions, 15-mer displayed peptide, unchanged parent 5.27
Relative to: input library
Direction: higher = stronger binding
Starting sequence: peptide; GDFPVMFMPKYSIIY
Variant	fold enrichment
GDFPVMFMPKDSIIY [Y11D]	0.445 fold
GDFPVMKMPKYSIIY [F7K]	0.913 fold
GDFPVMFMPKYWIIY [S12W]	6 fold
GDFPVMFMPKRSIIY [Y11R]	0.895 fold
GDRPVMFMPKYSIIY [F3R]	2.63 fold
GDFPVMFMPKYSSIY [I13S]	0.841 fold
GDQPVMFMPKYSIIY [F3Q]	4.28 fold
GDFPVMFMPKYSRIY [I13R]	0.735 fold

Single results of other studies
Molecule	target or system	test	test system	setting	how to read	measurement	result
HSPA5 (Homo sapiens, UniProt P11021)	MANF (Homo sapiens, UniProt P55145)	cross-linking MS	cells	with: BSPNO		cross-linked residues	K185 to K163
Cn1cncc1[C@@](O)(COc1ccc(C#N)cc1-c1ccc(OC(F)(F)F)cc1)c1ccc(C#N)cc1	HEK293T	high-content imaging		10 µM, 0 h, 1 normal, negative death, unit not given	relative to: untreated growth	GR value	0
Cc1ccc(NC(=O)c2ccc(CN3CCN(C)CC3)cc2)cc1Nc1nccc(-c2cccnc2)n1	NUAK family SNF1-like kinase 1 (NUAK1, Homo sapiens, UniProt O60285)	enzyme activity, inhibitor		0.5 µM	relative to: control	remaining activity	98.8%

Repeated from above (block 2):
Variant	fold enrichment
GDRPVMFMPKYSIIY [F3R]	2.63 fold
GDFPVMFMPKYSSIY [I13S]	0.841 fold
GDFPVMFMPKYWIIY [S12W]	6 fold
